Assay results pooled from the literature.
Every numbered part comes from another study and shows a few of its results, in no order. ± gives the spread as reported.
Chain of UniProt P42338 (whole entry, looked up): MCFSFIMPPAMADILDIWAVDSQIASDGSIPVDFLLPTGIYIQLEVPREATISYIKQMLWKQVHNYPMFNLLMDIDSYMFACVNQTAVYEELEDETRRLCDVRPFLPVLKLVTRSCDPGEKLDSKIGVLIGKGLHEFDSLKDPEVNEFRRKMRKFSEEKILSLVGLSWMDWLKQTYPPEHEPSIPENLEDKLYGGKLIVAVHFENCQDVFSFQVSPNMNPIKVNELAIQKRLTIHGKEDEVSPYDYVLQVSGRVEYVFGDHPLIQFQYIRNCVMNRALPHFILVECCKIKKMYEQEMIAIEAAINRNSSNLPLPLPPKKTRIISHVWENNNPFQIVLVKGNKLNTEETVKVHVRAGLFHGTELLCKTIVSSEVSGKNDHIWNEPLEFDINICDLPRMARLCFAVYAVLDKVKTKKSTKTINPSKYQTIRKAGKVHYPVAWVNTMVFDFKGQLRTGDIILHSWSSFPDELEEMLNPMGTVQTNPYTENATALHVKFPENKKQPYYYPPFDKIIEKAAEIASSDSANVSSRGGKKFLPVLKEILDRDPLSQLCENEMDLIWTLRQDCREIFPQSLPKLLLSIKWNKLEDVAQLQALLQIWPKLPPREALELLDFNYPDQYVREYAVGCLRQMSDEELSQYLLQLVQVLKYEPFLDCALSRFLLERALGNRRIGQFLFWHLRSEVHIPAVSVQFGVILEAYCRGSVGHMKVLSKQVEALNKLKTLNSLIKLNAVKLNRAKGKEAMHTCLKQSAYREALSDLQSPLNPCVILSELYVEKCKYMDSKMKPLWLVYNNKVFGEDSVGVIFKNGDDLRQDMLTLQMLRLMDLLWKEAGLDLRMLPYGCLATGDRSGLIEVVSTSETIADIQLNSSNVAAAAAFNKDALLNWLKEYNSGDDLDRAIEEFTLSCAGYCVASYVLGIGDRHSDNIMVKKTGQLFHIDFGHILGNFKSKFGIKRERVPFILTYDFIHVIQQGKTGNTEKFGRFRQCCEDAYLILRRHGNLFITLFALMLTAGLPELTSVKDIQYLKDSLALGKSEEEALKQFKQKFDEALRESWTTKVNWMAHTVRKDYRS

Sample 1 — target: HIV-1 TAR RNA; concentration: concentration not given; temperature: 25 °C; measurement: binding enthalpy ΔH°
SMILES = CC(=O)NCCN(CC(=O)NCCN(CC(=O)NCCN(CC(=O)NCCC(N)=O)C(=O)C[C@@H](N)CCCNC(=N)N)C(=O)C[C@@H](N)CCCNC(=N)N)C(=O)C[C@@H](N)Cc1ccccc1; value = -10.8 ± 0.598 kcal/mol
SMILES = CC(=O)NCCN(CCC(=O)NCCN(CCC(=O)NCCN(CCC(=O)NCCC(N)=O)C(=O)[C@@H](N)Cc1ccccc1)C(=O)[C@@H](N)CCCNC(=N)N)C(=O)[C@@H](N)CCCNC(=N)N; value = -13.8 ± 0.311 kcal/mol
SMILES = CC(=O)NCCN(CCC(=O)NCCN(CCC(=O)NCCN(CCC(=O)NCCC(N)=O)C(=O)[C@@H](N)CCCNC(=N)N)C(=O)[C@@H](N)CCCCN)C(=O)[C@@H](N)Cc1ccccc1; value = -15.8 ± 0.263 kcal/mol
SMILES = CC(=O)NCCN(CCC(=O)NCCN(CCC(=O)NCCN(CCC(=O)NCCC(N)=O)C(=O)[C@@H](N)CCCCN)C(=O)[C@@H](N)Cc1ccccc1)C(=O)[C@@H](N)Cc1ccccc1; value = -12.1 ± 0.287 kcal/mol

Sample 2 — cells: TZM-bl; measurement: IC50
Structure (SMILES): CNCc1ccc2c(c1)N(C(=O)OCc1c(F)c(F)c(F)c(F)c1F)[C@H](CNC(=N)N)[C@H]2NC(=O)C(=O)Nc1ccc(Cl)c(F)c1
tested on = env (Human immunodeficiency virus 1, UniProt Q5G5V1); effect on = pseudovirus infection; method = luciferase reporter; time = 48 h; value = 448 nM
tested on = env (Human immunodeficiency virus 1, UniProt Q5G5U9); effect on = pseudovirus infection; method = luciferase reporter; time = 48 h; value = 547 nM
tested on = Human immunodeficiency virus 1; effect on = viral infection; method = Env pseudovirus; strain = 6405.v4.c34 clade D; value = 1190 nM
tested on = env (Human immunodeficiency virus 1, UniProt Q27Q59); effect on = pseudovirus infection; method = luciferase reporter; time = 48 h; value = 135 nM
tested on = Human immunodeficiency virus 1; effect on = viral infection; method = Env pseudovirus; strain = HIV-0013095-2.11 clade C; value = 165 nM
tested on = Human immunodeficiency virus 1; effect on = viral infection; method = Env pseudovirus; strain = CAP210.2.00.E8 clade C; value = 958 nM

Further values, each from its own experiment
Structure (SMILES) = F[P-](F)(F)(F)(F)F.OC(Cn1cncn1)(Cn1cc(-[c-]2cccc2)nn1)c1ccc(F)cc1F.[Co+3].c1cc[cH-]c1 (racemic); tested on = Vero; effect on = cell growth or viability; method = MTT; time = 24 h; IC50 = 195000 nM
Structure (SMILES) = C[C@H](Nc1ncnc(N)c1C#N)c1c(-c2ccccc2)[nH]c2c(Cl)cccc2c1=O; tested on = PIK3CB (Homo sapiens, UniProt P42338); effect on = enzyme activity; action = inhibitor; IC50 = 96 nM

For quick reference, copied from above (further values, each from its own experiment):
Structure (SMILES) = F[P-](F)(F)(F)(F)F.OC(Cn1cncn1)(Cn1cc(-[c-]2cccc2)nn1)c1ccc(F)cc1F.[Co+3].c1cc[cH-]c1 (racemic); tested on = Vero; effect on = cell growth or viability; method = MTT; time = 24 h; IC50 = 195000 nM
